Measurements collected from several papers.
Each numbered part is a random draw from the data of one study; scales do not carry over between parts.
Sequence of UniProt Q15831 (whole entry, looked up): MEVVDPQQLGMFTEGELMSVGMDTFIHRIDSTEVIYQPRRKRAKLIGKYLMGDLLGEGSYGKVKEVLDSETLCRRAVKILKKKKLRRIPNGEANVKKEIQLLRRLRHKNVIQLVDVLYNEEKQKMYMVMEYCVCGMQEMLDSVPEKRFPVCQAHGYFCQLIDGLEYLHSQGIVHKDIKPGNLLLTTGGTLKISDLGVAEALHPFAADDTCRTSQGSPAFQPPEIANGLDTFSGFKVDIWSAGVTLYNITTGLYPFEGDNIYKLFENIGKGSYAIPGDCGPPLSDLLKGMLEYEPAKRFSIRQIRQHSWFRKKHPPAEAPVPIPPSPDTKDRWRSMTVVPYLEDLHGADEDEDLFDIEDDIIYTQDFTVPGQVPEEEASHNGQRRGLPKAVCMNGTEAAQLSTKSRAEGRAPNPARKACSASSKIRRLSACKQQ
Sequence of UniProt Q86YV6 (whole entry, looked up): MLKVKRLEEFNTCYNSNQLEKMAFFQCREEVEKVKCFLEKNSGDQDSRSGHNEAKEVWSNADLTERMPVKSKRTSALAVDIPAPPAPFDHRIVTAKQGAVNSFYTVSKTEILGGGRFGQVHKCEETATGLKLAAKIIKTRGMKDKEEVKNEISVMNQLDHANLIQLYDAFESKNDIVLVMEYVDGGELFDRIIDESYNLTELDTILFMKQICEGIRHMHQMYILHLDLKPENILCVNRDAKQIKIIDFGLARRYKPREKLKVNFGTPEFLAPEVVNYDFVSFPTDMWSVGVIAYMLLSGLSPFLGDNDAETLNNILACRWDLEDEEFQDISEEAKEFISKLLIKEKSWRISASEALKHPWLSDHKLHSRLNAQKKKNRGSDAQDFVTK
Sequence of UniProt Q9BYP7 (whole entry, looked up): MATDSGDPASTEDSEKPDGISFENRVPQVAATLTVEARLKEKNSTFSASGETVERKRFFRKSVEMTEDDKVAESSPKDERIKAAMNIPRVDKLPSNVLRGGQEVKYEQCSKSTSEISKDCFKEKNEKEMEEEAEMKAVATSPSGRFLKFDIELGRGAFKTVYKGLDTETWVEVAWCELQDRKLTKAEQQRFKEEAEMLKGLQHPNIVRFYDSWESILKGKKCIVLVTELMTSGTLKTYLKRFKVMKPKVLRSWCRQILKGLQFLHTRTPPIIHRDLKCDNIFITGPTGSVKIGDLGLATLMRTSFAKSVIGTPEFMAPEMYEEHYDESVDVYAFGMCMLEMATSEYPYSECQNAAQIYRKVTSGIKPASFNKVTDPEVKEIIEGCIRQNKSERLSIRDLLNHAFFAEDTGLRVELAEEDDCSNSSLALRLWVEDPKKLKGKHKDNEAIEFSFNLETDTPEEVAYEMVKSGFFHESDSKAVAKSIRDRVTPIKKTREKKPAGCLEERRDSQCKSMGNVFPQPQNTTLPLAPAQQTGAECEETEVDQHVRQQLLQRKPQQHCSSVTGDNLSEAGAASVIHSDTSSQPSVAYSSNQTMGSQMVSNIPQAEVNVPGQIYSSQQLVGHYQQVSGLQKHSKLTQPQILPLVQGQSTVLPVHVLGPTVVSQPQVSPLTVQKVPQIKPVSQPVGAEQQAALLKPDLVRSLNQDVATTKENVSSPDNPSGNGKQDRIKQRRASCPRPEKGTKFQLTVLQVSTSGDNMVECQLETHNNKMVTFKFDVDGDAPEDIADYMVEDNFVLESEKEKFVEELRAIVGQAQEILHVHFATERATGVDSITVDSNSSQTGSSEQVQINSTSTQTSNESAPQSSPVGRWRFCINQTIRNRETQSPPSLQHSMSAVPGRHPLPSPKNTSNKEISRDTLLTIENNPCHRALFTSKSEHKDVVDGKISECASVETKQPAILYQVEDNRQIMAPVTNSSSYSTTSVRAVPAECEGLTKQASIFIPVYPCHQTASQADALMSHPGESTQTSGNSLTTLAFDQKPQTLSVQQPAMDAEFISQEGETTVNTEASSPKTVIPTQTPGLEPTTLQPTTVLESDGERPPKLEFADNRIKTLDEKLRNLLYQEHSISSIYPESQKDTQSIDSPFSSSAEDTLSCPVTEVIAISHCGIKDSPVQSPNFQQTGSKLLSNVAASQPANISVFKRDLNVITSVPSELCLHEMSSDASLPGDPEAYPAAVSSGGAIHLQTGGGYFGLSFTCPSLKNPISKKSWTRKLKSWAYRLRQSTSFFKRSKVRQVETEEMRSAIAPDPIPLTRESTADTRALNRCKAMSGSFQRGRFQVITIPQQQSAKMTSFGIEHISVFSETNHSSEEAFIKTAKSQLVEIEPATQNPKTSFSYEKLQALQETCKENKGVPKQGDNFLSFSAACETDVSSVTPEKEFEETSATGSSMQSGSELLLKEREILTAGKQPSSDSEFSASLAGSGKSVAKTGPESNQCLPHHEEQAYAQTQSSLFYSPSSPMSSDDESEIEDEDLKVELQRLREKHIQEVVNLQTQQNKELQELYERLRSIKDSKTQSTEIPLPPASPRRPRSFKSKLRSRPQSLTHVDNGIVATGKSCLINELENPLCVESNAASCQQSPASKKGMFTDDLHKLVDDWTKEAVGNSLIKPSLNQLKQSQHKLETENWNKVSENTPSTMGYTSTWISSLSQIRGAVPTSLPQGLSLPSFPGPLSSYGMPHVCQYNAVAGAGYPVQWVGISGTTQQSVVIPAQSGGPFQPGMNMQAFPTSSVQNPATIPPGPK
Sequence of UniProt Q13233 (whole entry, looked up): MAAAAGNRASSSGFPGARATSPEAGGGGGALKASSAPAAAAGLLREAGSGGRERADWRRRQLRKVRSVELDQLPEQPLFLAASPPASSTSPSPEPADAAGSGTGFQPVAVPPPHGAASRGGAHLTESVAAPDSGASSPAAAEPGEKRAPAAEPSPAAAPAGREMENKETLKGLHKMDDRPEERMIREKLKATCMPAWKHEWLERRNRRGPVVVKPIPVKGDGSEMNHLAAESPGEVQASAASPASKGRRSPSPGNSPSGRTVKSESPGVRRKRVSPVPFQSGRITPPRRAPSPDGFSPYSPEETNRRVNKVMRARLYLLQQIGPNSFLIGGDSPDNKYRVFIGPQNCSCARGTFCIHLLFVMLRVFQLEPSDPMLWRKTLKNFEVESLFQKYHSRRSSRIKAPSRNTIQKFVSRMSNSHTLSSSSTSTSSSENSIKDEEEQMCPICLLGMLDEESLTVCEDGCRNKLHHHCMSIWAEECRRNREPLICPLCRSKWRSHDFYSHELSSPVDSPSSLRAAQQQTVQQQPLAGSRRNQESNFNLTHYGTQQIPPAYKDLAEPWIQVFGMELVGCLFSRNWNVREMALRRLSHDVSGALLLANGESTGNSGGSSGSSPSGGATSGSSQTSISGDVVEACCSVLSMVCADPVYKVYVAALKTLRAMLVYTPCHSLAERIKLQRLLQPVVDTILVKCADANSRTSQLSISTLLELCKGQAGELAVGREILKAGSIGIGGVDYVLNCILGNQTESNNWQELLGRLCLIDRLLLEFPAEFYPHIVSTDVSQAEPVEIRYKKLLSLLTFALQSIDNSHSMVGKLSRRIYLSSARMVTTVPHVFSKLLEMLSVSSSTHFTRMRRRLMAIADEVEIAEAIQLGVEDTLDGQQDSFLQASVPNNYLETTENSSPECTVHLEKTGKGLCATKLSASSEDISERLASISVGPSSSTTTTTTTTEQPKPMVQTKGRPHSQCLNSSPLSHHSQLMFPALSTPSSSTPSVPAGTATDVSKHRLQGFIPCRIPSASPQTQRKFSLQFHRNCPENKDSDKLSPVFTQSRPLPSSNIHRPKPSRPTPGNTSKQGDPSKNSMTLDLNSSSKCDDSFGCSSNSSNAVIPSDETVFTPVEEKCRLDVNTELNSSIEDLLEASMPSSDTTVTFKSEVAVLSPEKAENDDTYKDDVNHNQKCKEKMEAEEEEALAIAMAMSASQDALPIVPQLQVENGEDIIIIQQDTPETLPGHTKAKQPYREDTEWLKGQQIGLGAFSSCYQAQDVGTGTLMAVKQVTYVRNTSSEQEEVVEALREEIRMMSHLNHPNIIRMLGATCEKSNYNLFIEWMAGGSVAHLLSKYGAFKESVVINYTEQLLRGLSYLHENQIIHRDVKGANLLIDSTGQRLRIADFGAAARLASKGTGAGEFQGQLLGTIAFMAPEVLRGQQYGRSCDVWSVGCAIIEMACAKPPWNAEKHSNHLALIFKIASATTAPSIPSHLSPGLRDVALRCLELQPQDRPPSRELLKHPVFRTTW
Sequence of UniProt Q9UQB9 (whole entry, looked up): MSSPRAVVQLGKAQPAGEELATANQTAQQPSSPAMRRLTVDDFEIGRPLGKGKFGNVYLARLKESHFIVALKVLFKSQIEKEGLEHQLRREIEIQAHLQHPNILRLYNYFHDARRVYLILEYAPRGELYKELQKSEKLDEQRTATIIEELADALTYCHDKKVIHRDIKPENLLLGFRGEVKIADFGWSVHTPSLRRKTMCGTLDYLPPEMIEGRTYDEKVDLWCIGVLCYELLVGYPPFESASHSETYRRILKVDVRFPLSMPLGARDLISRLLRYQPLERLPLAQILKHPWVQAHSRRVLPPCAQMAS

Block 1
SMILES: CN(C)c1ncnc(-c2ccc3nc(Nc4cc(CN5CCN(C(=O)CC(F)(F)F)CC5)ccn4)[nH]c3c2)c1Cl
Observed: cell-free assay
Method: competition with immobilised ligand
Concentration: 1 µM
Ribosomal protein S6 kinase alpha-2, N-terminal kinase domain (RPS6KA2, Homo sapiens, UniProt Q15349) — remaining binding: 100%.
For STK11 (Homo sapiens, UniProt Q15831): remaining binding read 99%.
For WEE1 (Homo sapiens, UniProt P30291): remaining binding read 100%.
EGFR (Homo sapiens, UniProt P00533, del746-750) — remaining binding: 100%.
The remaining binding was 100% (Aurora kinase C (AURKC, Homo sapiens, UniProt Q9UQB9)).
For HASPIN (Homo sapiens, UniProt Q8TF76): remaining binding read 100%.
For STK32C (Homo sapiens, UniProt Q86UX6): remaining binding read 100%.
BMPR2 (Homo sapiens, UniProt Q13873) — remaining binding: 61%.
The remaining binding was 85% (WNK3 (Homo sapiens, UniProt Q9BYP7)).
For MAP3K6 (Homo sapiens, UniProt O95382): remaining binding read 87%.
For MET (Homo sapiens, UniProt P08581, Y1235D): remaining binding read 68%.
The remaining binding was 95% (MELK (Homo sapiens, UniProt Q14680)).
For MYLK4 (Homo sapiens, UniProt Q86YV6): remaining binding read 100%.
It gave 15% for remaining binding (MAP3K19 (Homo sapiens, UniProt Q56UN5)).
It gave 100% for remaining binding (NEK5 (Homo sapiens, UniProt Q6P3R8)).
The remaining binding was 100% (EGFR (Homo sapiens, UniProt P00533, T790M)).
For MAP3K1 (Homo sapiens, UniProt Q13233): remaining binding read 100%.

Block 2
Target: Prothrombin, mature alpha-thrombin (F2, Homo sapiens, UniProt P00734)
Method: aptamer microarray, sandwich
Molecule type: DNA with 2'F-ANA
Medium: in vitro
Concentration: 200 nM
Setting: whole 15-mer aptamer, many near background
Added: Cy3 exosite-II aptamer, 400 nM
Reading: higher = stronger binding
Strand: GGTTGGTGTGGTTGG
For `2'F-ANA at 1 2 4 5 7 12 13 14`, “mean fluorescence intensity” read 54.7 a.u.
Under “mean fluorescence intensity”, `2'F-ANA at 3 5 12 15` is recorded as 277 a.u.
Under “mean fluorescence intensity”, `2'F-ANA at 1 2 5 6 7 10 11 12 13 14` is recorded as 49.5 a.u.
For `2'F-ANA at 1 2 3 4 5 6 9 12 14`, “mean fluorescence intensity” read 96 a.u.
`2'F-ANA at 2 6 7 8 10 11 12 14` — result for “mean fluorescence intensity”: 94.2 a.u.
`2'F-ANA at 1 2 3 4 6 7 10 11 12 13`: “mean fluorescence intensity” 104 a.u.
`2'F-ANA at 2 4 7 8 11 12 14` — result for “mean fluorescence intensity”: 219 a.u.
`2'F-ANA at 1 3 4 5 6 8 9 10 11` — result for “mean fluorescence intensity”: 48.5 a.u.

Block 3
Target: PABPC1L2, full length, GST fusion (mouse, UniProt A0ABA7IW68)
Method: RNAcompete
Molecule type: RNA
Medium: in vitro
Concentration: 20 nM
Setting: 7-mer, probes averaged, single round
Baseline: mean of 7-mers
Reading: higher = stronger binding
Construct (chain): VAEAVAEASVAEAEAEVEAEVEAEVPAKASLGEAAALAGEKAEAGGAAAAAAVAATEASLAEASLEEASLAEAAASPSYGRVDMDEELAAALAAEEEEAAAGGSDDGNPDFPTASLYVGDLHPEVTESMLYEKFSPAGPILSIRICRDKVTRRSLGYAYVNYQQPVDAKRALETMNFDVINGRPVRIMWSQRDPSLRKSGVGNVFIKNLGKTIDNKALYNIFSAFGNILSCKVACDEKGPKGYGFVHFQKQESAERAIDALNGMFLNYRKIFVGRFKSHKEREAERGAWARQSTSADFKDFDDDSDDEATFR
`CCUUGAC` gave a 7-mer Z-score of -0.289.
The 7-mer Z-score of `CCGAUAG` is reported as -0.173.
The 7-mer Z-score of `CGGCGAU` is reported as -0.0192.
The 7-mer Z-score of `GGCCUUG` is reported as -0.284.
For `UAGCUAU`, the 7-mer Z-score was -0.2.
The 7-mer Z-score of `GAGUAGC` is reported as -0.2.
`CAGCGGU` has a 7-mer Z-score of -0.0881.
The 7-mer Z-score of `AUGUGAC` is reported as -0.00833.

Block 4
Target: G protein-coupled receptor kinase 4 (GRK4, Homo sapiens, UniProt P32298)
Sequence of UniProt P32298 (whole entry, looked up): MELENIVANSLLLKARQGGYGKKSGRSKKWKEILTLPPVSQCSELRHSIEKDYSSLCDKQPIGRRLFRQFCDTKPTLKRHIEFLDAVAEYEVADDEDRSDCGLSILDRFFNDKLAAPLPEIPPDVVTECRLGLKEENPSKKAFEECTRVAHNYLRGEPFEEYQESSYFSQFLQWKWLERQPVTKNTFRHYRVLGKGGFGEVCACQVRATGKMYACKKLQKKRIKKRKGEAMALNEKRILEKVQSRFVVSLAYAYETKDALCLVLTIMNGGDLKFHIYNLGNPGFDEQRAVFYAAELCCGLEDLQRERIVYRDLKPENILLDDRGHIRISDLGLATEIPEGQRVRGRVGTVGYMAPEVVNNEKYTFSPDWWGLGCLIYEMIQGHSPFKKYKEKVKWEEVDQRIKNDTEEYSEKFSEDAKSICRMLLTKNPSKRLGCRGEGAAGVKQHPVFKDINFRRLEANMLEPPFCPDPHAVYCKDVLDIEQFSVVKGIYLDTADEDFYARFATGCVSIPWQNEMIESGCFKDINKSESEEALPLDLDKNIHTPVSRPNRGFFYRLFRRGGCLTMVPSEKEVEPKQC
Observed: enzyme activity
Mode: inhibitor
Concentration: 0.5 µM
Baseline: control
`Nc1ncnc2n[nH]c(Nc3ccc(F)cc3)c12` has a remaining activity of 98.8%.
`OCC(O)CCON=C1C(c2c(O)[nH]c3ccccc23)=Nc2ccccc21` (centres unmarked) gave a remaining activity of 74.7%.
`O=C1NC(=O)C(c2cn(CCCO)c3ncccc23)=C1c1cnccn1` has a remaining activity of 90.1%.
`COc1cc2ncnc(Nc3ccc(Oc4ccccc4)cc3)c2cc1OC` gave a remaining activity of 97.1%.
The remaining activity of `CO[C@H]1C[C@@H]2CC[C@@H](C)[C@@](O)(O2)C(=O)C(=O)N2CCCC[C@H]2C(=O)O[C@H]([C@H](C)C[C@@H]2CC[C@@H](O)[C@H](OC)C2)CC(=O)[C@H](C)/C=C(\C)[C@@H](O)[C@@H](OC)C(=O)[C@H](C)C[C@H](C)/C=C/C=C/C=C/1C` is reported as 96.1%.
The remaining activity of `Cc1nc(-c2ccccc2)c(-c2ccncc2)o1` is reported as 94.3%.
`O=S(=O)(c1cccc2cnccc12)N1CCCNCC1` has a remaining activity of 104%.
`Cc1cccc(-c2[nH]c(C(C)(C)C)nc2-c2ccc3c(c2)OCO3)n1` gave a remaining activity of 101%.
With `Nc1[nH]nc2nc3ccccc3nc12` the remaining activity was 98.9%.
With `COc1cc2ncnc(Nc3ccc(F)c(Cl)c3)c2cc1OCCCN1CCOCC1` the remaining activity was 91%.
With `O=C(Nc1cccc(Nc2cc(Nc3cccc(C(F)(F)F)c3)ncn2)c1)C1CC1` the remaining activity was 104%.
`COc1ccc(OC)c2c(=S)c3ccccc3[nH]c12` has a remaining activity of 103%.
`O=C(O)c1ccc2c3c1cccc3c(=O)n1c3ccccc3nc21` has a remaining activity of 95.5%.
The remaining activity of `CCOC(=O)c1c(C)[nH]c(/C=C2\C(=O)Nc3ccccc32)c1C` is reported as 82.9%.

Some of these lines once more (block 1):
For MAP3K6 (Homo sapiens, UniProt O95382): remaining binding read 87%.
For MET (Homo sapiens, UniProt P08581, Y1235D): remaining binding read 68%.
The remaining binding was 95% (MELK (Homo sapiens, UniProt Q14680)).
For MYLK4 (Homo sapiens, UniProt Q86YV6): remaining binding read 100%.
It gave 15% for remaining binding (MAP3K19 (Homo sapiens, UniProt Q56UN5)).
It gave 100% for remaining binding (NEK5 (Homo sapiens, UniProt Q6P3R8)).
